Results from different studies.
Compare with care: the assays were run in different laboratories.

CC(C)c1nc(N(C)S(C)(=O)=O)nc(-c2ccc(F)cc2)c1/C=C/[C@@H](O)C[C@@H](O)CC(=O)O
AUC(0-last) (healthy human subjects, plasma; oral, 20 mg, day 1, alone, geometric mean): 45.6 ng·h/mL

CCC(CC)COC(=O)[C@H](C)N[P@](=O)(OC[C@H]1O[C@@](C#N)(c2ccc3c(N)ncnn23)[C@H](O)[C@@H]1O)Oc1ccccc1
AUC(0-last) (human, plasma; intravenous, 100 mg single dose): 1280 ng·h/mL

OCc1ncc2n1-c1ccc(Cl)cc1C(c1ccccc1F)=NC2
AUC(0-last) (humans, plasma; 3 mg of midazolam, midazolam alone): 14.1 ng·h/mL

O[C@H]1CCCN[C@@H]1CCCn1cnc2c(Cl)c(Cl)ccc21
AUC(0-last) (healthy humans, plasma; oral, 150 mg single dose): 876 ng·h/mL

OCc1ncc2n1-c1ccc(Cl)cc1C(c1ccccc1F)=NC2
AUC(0-last) (healthy human volunteers, plasma; 5 mg, day 11, fed, with: once daily, momelotinib 200 mg, days 4 to 11): 22.4 ng·h/mL

OCc1ncc2n1-c1ccc(Cl)cc1C(c1ccccc1F)=NC2
AUC(0-last) (human, plasma; oral, 2 mg midazolam, day 1, midazolam alone, geometric mean): 6.21 ng·h/mL

OCc1ncc2n1-c1ccc(Cl)cc1C(c1ccccc1F)=NC2
AUC(0-last) (human; dose not given, with: risdiplam): 9.43 ng·h/mL

Cc1ncc2n1-c1ccc(Cl)cc1C(c1ccccc1F)=NC2
AUC(0-last) (human, plasma; oral, 2 mg, day 1): 21.5 ng·h/mL

CC(C)[C@H](N)C(=O)NCCCS(=O)(=O)O
AUC(0-last) (human; oral, 265 mg twice daily, week 65, effect of covariates on exposure): no effect

Repeated from above:
CC(C)[C@H](N)C(=O)NCCCS(=O)(=O)O
AUC(0-last) (human; oral, 265 mg twice daily, week 65, effect of covariates on exposure): no effect
